# Measured values of several laboratories.
# A part holds a random share of what one study measured.

# Set 1
# Target: Prothrombin, mature alpha-thrombin (F2, Homo sapiens, UniProt P00734)
# Technique: aptamer microarray, sandwich
# Molecule type: DNA with 2'F-ANA
# Sample: in vitro
# Tested at: 200 nM
# Setting: whole 15-mer aptamer, many near background
# Together with: Cy3 exosite-II aptamer, 400 nM
# Direction: higher = stronger binding
# Strand: GGTTGGTGTGGTTGG
Modification,mean fluorescence intensity [a.u.]
2'F-ANA at 1 3 11 13 14,99.6
2'F-ANA at 1 2 3 7 8 9 11 12 13 15,313
2'F-ANA at 1 2 4 7 8 10 12 13 14,46.4
2'F-ANA at 2 5 6 7 13 14 15,53.4
2'F-ANA at 1 3 7 8 9 10 11 12 14,73
2'F-ANA at 1 3 5 6 7 11 12 13 15,81.2
2'F-ANA at 1 3 5 11 12 14,51.4
2'F-ANA at 7 8,780
2'F-ANA at 1 4 5 7 8 11 14 15,46.5
2'F-ANA at 2 3 5 6 7 13 14,144
2'F-ANA at 1 3 4 6 7 9 10 11 12 14 15,55.8
2'F-ANA at 1 2 3 5 6 9 11 12 13,77.5
2'F-ANA at 2 7 8 9 10 11 14 15,83.6
2'F-ANA at 1 2 5 6 7 8 9 10 11 14,44.9
2'F-ANA at 1 3 9 11 12 13 14,127
2'F-ANA at 1 3 4 6 8 9 11 12 14,73.1
2'F-ANA at 1 3 10 11 12 13,121
2'F-ANA at 2 3 4 5 6 9 10 11 13 14 15,66.1
2'F-ANA at 1 4 7 8 9 10 12 14 15,47.6
2'F-ANA at 1 2 3 5 6 9 10 11 12 13 14 15,59.9
2'F-ANA at 1 5 6 8 12 15,104
2'F-ANA at 2 3 4 5 6 8 11 13 14,50.7
2'F-ANA at 5 6 7 8 10 12 13 14,43.5
2'F-ANA at 2 3 5 6 8 9 11 14 15,55.3
2'F-ANA at 2 3 5 6 7 10 11 12 13,53.5

# Set 2
# Target: RNA binding protein fox-1 homolog 2, RRM domain, GST-SBP tag (RBFOX2, Homo sapiens, UniProt O43251-10, residues 100-194)
# Technique: RNA Bind-n-Seq
# Molecule type: RNA
# Sample: in vitro
# Tested at: 365 nM
# Setting: natural RNA segment, single round, ends assumed
# Relative to: no-protein control
# Direction: higher = stronger binding
# Target sequence (chain): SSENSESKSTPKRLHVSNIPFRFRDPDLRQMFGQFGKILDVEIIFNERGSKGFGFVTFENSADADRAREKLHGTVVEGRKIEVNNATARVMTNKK
Strand,RBNS enrichment (R)
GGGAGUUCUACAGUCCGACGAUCGCUUUUGGAUCAUUUCGGGCCAGUAGGACCAUGGGCAGAGCUCCUUAACACUGCUGUGGUAAAUCCACGGUCCAAGCCCAGGCGGGCUGAGAAGAGAGAUGGCCUGAGCAUGGAAUUCUCGGGUGCCAA,0.547
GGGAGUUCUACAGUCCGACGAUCUGCAGUGCUCCCCAGUGCAGUCCUGUAAUCUGCAGCAGGGAGCACGUCCUCUGCUCUCUGCUAUGUGGUUAUUCUAAACGUCACUGGCCAGGGGACUCGCCUACUGAGAGUGGAAUUCUCGGGUGCCAA,0.208
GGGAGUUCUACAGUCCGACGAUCGGCAUGAGGCACUGUCACUUGCUUAGUACAAAGUCCUGGGCUGGAGAGAUGGCUCAGUGGUUAAGAGCACCGACUGCUCUUCCAGAGGUCCUGUGUUCAAUUCCCAGCAAUGGAAUUCUCGGGUGCCAA,0.727
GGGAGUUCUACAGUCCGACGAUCUAUUUAUCAAAACUGACUACUGGACCGGAGCCCAGAAACCAUGGGUCAAGUUACACGUGAAUUUGUUUUGUGAAGAAGGGAAGCUGGGGCAGGUAACACGCAGAGCCGCCUGGAAUUCUCGGGUGCCAA,0.417
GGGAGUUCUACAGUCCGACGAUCGGCUUUGAAGGUCAUUUGCACAAGAGCACGUGACCCAGAGAUGGAGAAGUGAGGUUCAGGGAGGGUGCUUAGAGACCAGCCUGUUCUUUGAGCUGUAGAGACUCAUGCUGUGGAAUUCUCGGGUGCCAA,1.21
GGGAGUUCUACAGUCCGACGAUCAUGGAUCUAUAUAACCAAUGAGUUGAUUCUCUUAAAAAAAUAAUAAACCCCCCUCUAUUAUGUGGGCCUAUGUACAAAUGUGGGUAUCCGCUGGUUUUGUUGUCUACGGGUGGAAUUCUCGGGUGCCAA,0.589
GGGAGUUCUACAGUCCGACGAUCUGUAUGUCCUGUGCCUUUUCUCACUAUUGUUUGGGUGUGGGAGGGGGUGGUUUUUCACUGAAAAGGGGGGUACACCUAUAGCUUUCUUGAUGUUCAAUCAAUCAGUCACUUGGAAUUCUCGGGUGCCAA,0.674
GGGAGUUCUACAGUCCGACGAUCAAGGGAAGGGUAGCCAGGGAGGGAGUCCAGCCCAGCUGCCUGCAGGAAGAUCUGGCUCAGUCUACUAUGGGCAGGGCCCCCCACCAAGCUGAGCCGAAUGGAGACAGCUGUGGAAUUCUCGGGUGCCAA,0.349
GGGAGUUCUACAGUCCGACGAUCCAAUCUUGUAUUUUCUGACCACAUAAAGGCUUCUUCUCUUUGUAAUAAAGUAGAAAAGCUCUCCUCACUGCAGUGUUGGCUUUGAUUUGAAAUUGCGAAAUUAUUUCUUCUGGAAUUCUCGGGUGCCAA,0.406
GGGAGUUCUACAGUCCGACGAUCUUCUUCUUAAAGAGCUGCUUGGUUAUCCAAAAAUGAAAAUUCAAAAUAAACUCUGAAGAAAAGGAAACUGUCUUUGUGGUCAUUUGAAUUCAUUCUGAGUCAUUAUCUGUUGGAAUUCUCGGGUGCCAA,0.339
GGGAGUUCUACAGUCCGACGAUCUCUUCAUUCAACUCAGAAGGCCUGAUCUGUGUAUAUUCUGGUGUGUAUUGUAUGGUAGCUCUUUGAGCCUUGGUUGGUCGACUCUAGUGUAAGUUUAAUUAAUUGUAUAUUGGAAUUCUCGGGUGCCAA,1.01
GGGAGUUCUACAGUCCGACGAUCUAGCUCAGCUUUCAGAGCGCUAACUCUAAAGGAAUUCACCUGAGCCUUGAGAGAGAACCUGGGCUAGGGCUAGAGUUAGGGCUACAUACUCCAAGGUGACCUCACAUUUGUGGAAUUCUCGGGUGCCAA,0.408

# Set 3
# Target: Interferon regulatory factor 3, full length, phosphomimetic (IRF3, Homo sapiens, UniProt Q14653, residues 1-427, S386D/S396D/S398D/S402D/T404D/S405D)
# Technique: protein-binding microarray
# Molecule type: double-stranded DNA, one strand shown
# Sample: in vitro
# Tested at: 2540 nM top
# Setting: 60-bp whole probe
# Together with: salmon DNA 0.4 mg/ml
# Relative to: random background probes
# Direction: higher = stronger binding
# Shared flanks, not repeated: GCCTAGCAC … GTCTTGATTCGCTTGACGCTGCTG
# Target sequence (chain): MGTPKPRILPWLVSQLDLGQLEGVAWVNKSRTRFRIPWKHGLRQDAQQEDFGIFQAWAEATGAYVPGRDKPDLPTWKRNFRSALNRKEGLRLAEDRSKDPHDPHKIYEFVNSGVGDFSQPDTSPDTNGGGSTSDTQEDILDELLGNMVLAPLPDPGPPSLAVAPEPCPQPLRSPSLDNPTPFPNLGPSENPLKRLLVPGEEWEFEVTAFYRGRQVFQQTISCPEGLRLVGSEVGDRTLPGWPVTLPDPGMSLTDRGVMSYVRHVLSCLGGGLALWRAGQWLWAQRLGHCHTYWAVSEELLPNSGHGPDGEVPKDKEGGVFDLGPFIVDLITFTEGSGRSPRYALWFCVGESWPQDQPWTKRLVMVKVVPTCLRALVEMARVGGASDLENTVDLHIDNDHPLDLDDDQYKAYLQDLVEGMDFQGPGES
Strand,fitted relative affinity [z-score]
CTGGAGGTTGGGCAAGGCCCGTGCTAG,-1.56
ACTTCATTGCATATAGAAAAGTGCTAG,0.395
TTAGGCATCCTTTTCCTTTAGTGCTAG,2.42
TCATGTTTCCTTGTACGACTGTGCTAG,3.98
GGCTTGACGTCATCCCCTTGGTGCTAG,-0.899
GACGATCTCAGAATGGAGACGTGCTAG,0.706
GACGAACTGAGTTTCAAGACGTGCTAG,0.137
CTCTCTTTCCACTTGTCTTTGTGCTAG,2.3
GCCCATCTCTGCTCCTTCTGGTGCTAG,1.45
ATAGGACTGGACTATCGGTTAGTGCTA,-0.242
AACGGTCTCGGTTTCGGGACGTGCTAG,4.02
TTAGGTTTTCTACTGCTTTAGTGCTAG,0.577
TCATTTTACATTATTACACTGTGCTAG,2.44
TCATGCCTCATCTTGCAGACTGTGCTA,0.571
TTAGGTCTCCTTCTACTTTAGTGCTAG,2.77
AAAGTTTTTCATTTTTTTTCGTGCTAG,1.15
TGAGGACTGCTTCTCCTTTAGTGCTAG,-0.468
TAAGGTATCGACTATCGGTTAGTGCTA,0.453
TTAGGTCTTGGTTTCGGTTAGTGCTAG,4.36

# Set 4
# Target: Sal-like protein 4, full length isoform A (SALL4, Homo sapiens, UniProt Q9UJQ4, residues 1-1053)
# Sequence of UniProt Q9UJQ4 (whole entry, looked up): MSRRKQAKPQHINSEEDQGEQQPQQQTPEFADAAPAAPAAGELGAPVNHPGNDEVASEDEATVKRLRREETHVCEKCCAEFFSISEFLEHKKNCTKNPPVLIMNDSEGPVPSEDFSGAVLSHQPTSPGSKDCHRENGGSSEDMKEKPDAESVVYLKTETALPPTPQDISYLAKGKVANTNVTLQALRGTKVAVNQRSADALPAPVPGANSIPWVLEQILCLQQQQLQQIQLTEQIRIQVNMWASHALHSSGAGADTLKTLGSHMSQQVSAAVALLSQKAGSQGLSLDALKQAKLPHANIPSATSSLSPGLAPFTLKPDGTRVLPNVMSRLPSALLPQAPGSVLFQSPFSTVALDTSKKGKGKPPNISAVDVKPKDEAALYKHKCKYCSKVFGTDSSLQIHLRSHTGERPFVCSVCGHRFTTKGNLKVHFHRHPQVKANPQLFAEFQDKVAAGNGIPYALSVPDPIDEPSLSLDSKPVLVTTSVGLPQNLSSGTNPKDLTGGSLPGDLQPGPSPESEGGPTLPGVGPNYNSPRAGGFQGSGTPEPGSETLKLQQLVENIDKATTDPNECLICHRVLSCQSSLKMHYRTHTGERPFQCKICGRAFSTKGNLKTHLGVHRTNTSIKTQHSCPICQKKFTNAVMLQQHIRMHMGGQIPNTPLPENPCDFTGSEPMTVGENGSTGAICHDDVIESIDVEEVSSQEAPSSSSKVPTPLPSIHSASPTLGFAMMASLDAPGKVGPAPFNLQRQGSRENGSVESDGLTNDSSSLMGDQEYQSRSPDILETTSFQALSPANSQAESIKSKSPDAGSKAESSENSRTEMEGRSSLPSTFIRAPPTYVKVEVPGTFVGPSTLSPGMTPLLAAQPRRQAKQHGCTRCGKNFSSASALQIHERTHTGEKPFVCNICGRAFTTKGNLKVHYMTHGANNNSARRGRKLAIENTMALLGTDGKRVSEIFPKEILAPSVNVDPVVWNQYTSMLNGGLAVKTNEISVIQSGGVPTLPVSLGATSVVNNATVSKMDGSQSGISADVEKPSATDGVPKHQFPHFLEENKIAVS
# Technique: universal PBM
# Molecule type: double-stranded DNA, one strand shown
# Sample: in vitro
# Tested at: 600 nM
# Setting: 8-mer, flanks averaged, mean of replicates
# Direction: higher = stronger binding
Strand,E-score
AACGACCT,-0.0816
CGTACGCA,-0.197
ACATCCCG,-0.0714
GTGAGCGA,-0.169
ACAAAACG,0.143
ACTTACTC,0.00831
GTCTCAAC,-0.00594
ATCTGCAA,0.03
CACAAAAG,-0.0132
GATCTCAC,-0.0817
AGGAGATG,0.0792
AGTCCACG,-0.156
CTAGTGAA,-0.0318
GCTCCGCA,-0.195
GAAGATCA,0.0266
AAAACGTG,0.144
AGGCGACG,-0.256
AAGCGGGT,-0.271
CGGTACGC,-0.192

# Excerpt of the above (set 1):
Modification,mean fluorescence intensity [a.u.]
2'F-ANA at 1 3 5 11 12 14,51.4
2'F-ANA at 7 8,780
2'F-ANA at 1 4 5 7 8 11 14 15,46.5
2'F-ANA at 2 3 5 6 7 13 14,144
2'F-ANA at 1 3 4 6 7 9 10 11 12 14 15,55.8
2'F-ANA at 1 2 3 5 6 9 11 12 13,77.5
